Published values of several laboratories.
Lines come from different studies, so protocols differ. ± marks the error that the study gave.
Sequence of UniProt G5EFZ1 (whole entry, looked up): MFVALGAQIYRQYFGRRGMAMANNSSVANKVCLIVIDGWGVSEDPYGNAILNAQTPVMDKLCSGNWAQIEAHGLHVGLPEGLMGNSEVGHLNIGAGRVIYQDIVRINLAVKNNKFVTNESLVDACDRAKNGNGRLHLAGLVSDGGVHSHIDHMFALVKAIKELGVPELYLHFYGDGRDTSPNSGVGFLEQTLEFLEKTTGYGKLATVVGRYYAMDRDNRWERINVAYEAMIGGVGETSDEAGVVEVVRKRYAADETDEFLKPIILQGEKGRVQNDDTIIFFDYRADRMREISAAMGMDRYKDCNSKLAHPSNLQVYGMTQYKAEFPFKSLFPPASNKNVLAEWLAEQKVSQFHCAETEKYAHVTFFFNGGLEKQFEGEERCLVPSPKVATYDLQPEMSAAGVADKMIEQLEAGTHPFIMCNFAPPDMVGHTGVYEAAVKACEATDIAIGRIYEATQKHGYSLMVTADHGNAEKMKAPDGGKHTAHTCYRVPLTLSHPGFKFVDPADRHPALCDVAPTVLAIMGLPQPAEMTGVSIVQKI
Sequence of UniProt P21729 (whole entry, looked up): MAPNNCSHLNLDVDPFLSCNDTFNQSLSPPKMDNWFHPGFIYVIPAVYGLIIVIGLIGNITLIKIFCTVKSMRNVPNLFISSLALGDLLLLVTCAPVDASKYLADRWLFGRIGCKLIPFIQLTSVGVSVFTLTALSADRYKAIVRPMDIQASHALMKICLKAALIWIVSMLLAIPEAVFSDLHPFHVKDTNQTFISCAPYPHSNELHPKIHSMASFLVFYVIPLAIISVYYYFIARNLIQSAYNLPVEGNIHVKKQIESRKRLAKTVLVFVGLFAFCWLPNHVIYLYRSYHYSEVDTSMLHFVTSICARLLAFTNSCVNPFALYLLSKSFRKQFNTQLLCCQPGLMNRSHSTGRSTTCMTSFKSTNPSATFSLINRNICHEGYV

N=C(N)NCCC[C@@H]1NC(=O)[C@H](CCCCNC(=O)CNC(=O)CNC(=O)CNC(=O)CC[C@H](NC(=O)CCOCCOCCOCCOCCNC(=O)CC[C@H](NC(=O)CN2CCN(CC(=O)O)CCN(CC(=O)O)CCN(CC(=O)O)CC2)C(=O)NCCOCCOCCOCCOCCC(=O)N[C@@H](CCC(=O)NCC(=O)NCC(=O)NCC(=O)NCCCC[C@@H]2NC(=O)[C@@H](Cc3ccccc3)NC(=O)[C@H](CC(=O)O)NC(=O)CNC(=O)[C@H](CCCNC(=N)N)NC2=O)C(=O)NCC(=O)NCC(=O)NCC(=O)NCCCC[C@@H]2NC(=O)[C@@H](Cc3ccccc3)NC(=O)[C@H](CC(=O)O)NC(=O)CNC(=O)[C@H](CCCNC(=N)N)NC2=O)C(=O)NCC(=O)NCC(=O)NCC(=O)NCCCC[C@@H]2NC(=O)[C@@H](Cc3ccccc3)NC(=O)[C@H](CC(=O)O)NC(=O)CNC(=O)[C@H](CCCNC(=N)N)NC2=O)NC(=O)[C@@H](Cc2ccccc2)NC(=O)[C@H](CC(=O)O)NC(=O)CNC1=O [indium-111 labelled] — tissue uptake (female athymic nude mice, lungs; intravenous, 3 µCi, 0.5 h, U-87 MG glioma xenograft): 4.26 ± 0.78 %ID/g
CCCNC(=O)[C@H](CC(C)C)NC(=O)[C@H](Cc1c[nH]cn1)NC(=O)CNC(=O)[C@@H](NC(=O)[C@H](C)NC(=O)[C@H](Cc1c[nH]c2ccccc12)NC(=O)[C@H](CCC(N)=O)NC(=O)[C@@H](Cc1ccccc1)NC(=O)CCCCCNC(=O)CN1CCN(CC(=O)O)CCN(CC(=O)O)CCN(CC(=O)O)CC1)C(C)C [indium-111 labelled] — tissue uptake (Gastrin-releasing peptide receptor (Mus musculus, UniProt P21729); biodistribution; CF-1 mice, muscle; intravenous, 1 h, together with: bombesin 100 µg, blocking): 0.06 ± 0.01 %ID/g
CCCC[C@H](NC(=O)CCCCCCCNC(=O)c1ccc(NN)nc1)C(=O)N[C@H]1CC(=O)NCCCC[C@@H](C(N)=O)NC(=O)[C@H](Cc2c[nH]c3ccccc23)NC(=O)[C@H](CCCNC(=N)N)NC(=O)[C@@H](Cc2ccccc2)NC(=O)[C@H](Cc2c[nH]cn2)NC1=O [technetium-99m labelled] — uptake (C57 mouse, B16/F1 melanoma, stomach; intravenous, 24 h): 0.11 ± 0.02 %ID/g
N=C(N)NCCC[C@@H]1NC(=O)[C@H](CCCCNC(=O)CCOCCOCCOCCOCCNC(=O)CC[C@H](NC(=O)CCOCCOCCOCCOCCNC(=O)CC[C@H](NC(=O)CN2CCN(CC(=O)O)CCN(CC(=O)O)CCN(CC(=O)O)CC2)C(=O)NCCOCCOCCOCCOCCC(=O)N[C@@H](CCC(=O)NCCOCCOCCOCCOCCC(=O)NCCCC[C@@H]2NC(=O)[C@@H](Cc3ccccc3)NC(=O)[C@H](CC(=O)O)NC(=O)CNC(=O)[C@H](CCCNC(=N)N)NC2=O)C(=O)NCCOCCOCCOCCOCCC(=O)NCCCC[C@@H]2NC(=O)[C@@H](Cc3ccccc3)NC(=O)[C@H](CC(=O)O)NC(=O)CNC(=O)[C@H](CCCNC(=N)N)NC2=O)C(=O)NCCOCCOCCOCCOCCC(=O)NCCCC[C@@H]2NC(=O)[C@@H](Cc3ccccc3)NC(=O)[C@H](CC(=O)O)NC(=O)CNC(=O)[C@H](CCCNC(=N)N)NC2=O)NC(=O)[C@@H](Cc2ccccc2)NC(=O)[C@H](CC(=O)O)NC(=O)CNC1=O [indium-111 labelled] — tissue uptake (female athymic nude mice, spleen; intravenous, 3 µCi, 0.5 h, U-87 MG glioma xenograft): 2.69 ± 0.63 %ID/g
CC(C)C[C@H](NC(=O)[C@H](C)N)C(=O)N[C@@H](CC(C)C)C(=O)N[C@@H](C)C(=O)N[C@@H](CC(N)=O)C(=O)N[C@@H](Cc1c[nH]cn1)C(=O)N[C@@H](CCC(=O)O)C(=O)N[C@@H](CCC(=O)O)C(=O)N[C@@H](CC(C)C)C(=O)N[C@@H](Cc1ccccc1)C(=O)N[C@@H](CCC(N)=O)C(=O)N[C@H](C(=O)NCC(=O)NCC(=O)NCC(=O)N[C@@H](CO)C(=O)N[C@@H](CSC1CC(=O)N(CCNC(=O)CCCCCN2C(=CC=C3CCCC(C=CC4=[N+](CCCCS(=O)(=O)[O-])c5ccc(S(=O)(=O)O)cc5C4(C)C)=C3Oc3ccc(S(=O)(=O)O)cc3)C(C)(C)c3cc(S(=O)(=O)O)ccc32)C1=O)C(=O)O)[C@@H](C)O (some centres unmarked) — time to signal clearance (photoacoustic imaging; mouse Hep3B orthotopic xenograft; intravenous, 150 µM): ~24 h
COc1ccc(C[C@H]2C(=O)N[C@@H](CC(N)=O)C(=O)N[C@@H](CC(=O)O)C(=O)N[C@@H](CO)C(=O)NCC(=O)N[C@@H](Cc3c[nH]c4ccccc34)C(=O)N(C)[C@@H](Cc3ccc(O)cc3)C(=O)N[C@@H](CC(N)=O)C(=O)N[C@@H]([C@@H](C)O)C(=O)N(C)[C@@H](Cc3ccccc3)C(=O)N[C@H](C(N)=O)CSCC(=O)N[C@@H](Cc3ccc(O)cc3)C(=O)N2C)cc1 — AC50 (ipgm-1 (Caenorhabditis elegans, UniProt G5EFZ1); enzyme activity): 2750 nM
N=C(N)NCCC[C@@H]1NC(=O)[C@H](CCCCNC(=O)CC[C@H](NC(=O)CCOCCOCCOCCOCCNC(=O)CC[C@H](NC(=O)CN2CCN(CC(=O)O)CCN(CC(=O)O)CCN(CC(=O)O)CC2)C(=O)NCCOCCOCCOCCOCCC(=O)N[C@@H](CCC(=O)NCCCC[C@@H]2NC(=O)[C@@H](Cc3ccccc3)NC(=O)[C@H](CC(=O)O)NC(=O)CNC(=O)[C@H](CCCNC(=N)N)NC2=O)C(=O)NCCCC[C@@H]2NC(=O)[C@@H](Cc3ccccc3)NC(=O)[C@H](CC(=O)O)NC(=O)CNC(=O)[C@H](CCCNC(=N)N)NC2=O)C(=O)NCCCC[C@@H]2NC(=O)[C@@H](Cc3ccccc3)NC(=O)[C@H](CC(=O)O)NC(=O)CNC(=O)[C@H](CCCNC(=N)N)NC2=O)NC(=O)[C@@H](Cc2ccccc2)NC(=O)[C@H](CC(=O)O)NC(=O)CNC1=O [indium-111 labelled] — tissue uptake (female athymic nude mice, liver; intravenous, 3 µCi, 72 h, U-87 MG glioma xenograft): 0.55 ± 0.05 %ID/g
N=C(N)NCCC[C@@H]1NC(=O)[C@H](CCCCNC(=O)CCOCCOCCOCCOCCNC(=O)CC[C@H](NC(=O)CCOCCOCCOCCOCCNC(=O)[C@H](CCCCNC(=O)c2ccc(NN)nc2)NC(=O)c2ccc(NN)nc2)C(=O)NCCOCCOCCOCCOCCC(=O)NCCCC[C@@H]2NC(=O)[C@@H](Cc3ccccc3)NC(=O)[C@H](CC(=O)O)NC(=O)CNC(=O)[C@H](CCCNC(=N)N)NC2=O)NC(=O)[C@@H](Cc2ccccc2)NC(=O)[C@H](CC(=O)O)NC(=O)CNC1=O [technetium-99m labelled] — tissue ratio (female athymic nude mice; intravenous, 1 h, U-87 MG glioma xenograft; baseline: tumour over blood): 15.9 ± 2.87
CCCC[C@H](NC(=O)CNC(=O)CNC(=O)CNC(=O)c1ccc(NN)nc1)C(=O)N[C@H]1CC(=O)NCCCC[C@@H](C(N)=O)NC(=O)[C@H](Cc2c[nH]c3ccccc23)NC(=O)[C@H](CCCNC(=N)N)NC(=O)[C@@H](Cc2ccccc2)NC(=O)[C@H](Cc2c[nH]cn2)NC1=O [technetium-99m labelled] — uptake ratio (C57 mouse, B16/F1 melanoma; 2 h; baseline: tumour over liver): 37.3
CSCC[C@H](NC(=O)[C@H](CC(C)C)NC(=O)[C@H](Cc1c[nH]cn1)NC(=O)CNC(=O)[C@@H](NC(=O)[C@H](C)NC(=O)[C@H](Cc1c[nH]c2ccccc12)NC(=O)[C@H](CCC(N)=O)NC(=O)[C@H](CC(N)=O)NC(=O)CNC(=O)[C@H](Cc1ccc(O)cc1)NC(=O)[C@H](CCCNC(=N)N)NC(=O)[C@H](CCC(N)=O)NC(=O)[C@@H]1CCCN1C(=O)CN1CCN(CC(=O)O)CCN(CC(=O)O)CCN(CC(=O)O)CC1)C(C)C)C(N)=O [indium-111 labelled] — intact peptide (radio-HPLC; male Swiss nu/nu mice, blood; intravenous, 1 nmol, 15 min): 3.4 ± 1.3%
N=C(N)NCCC[C@@H]1NC(=O)[C@H](CCCCNC(=O)CCOCCOCCOCCOCCNC(=O)CN2CCN(CC(=O)O)CCN(CC(=O)O)CCN(CC(=O)O)CC2)NC(=O)[C@@H](Cc2ccccc2)NC(=O)[C@H](CC(=O)O)NC(=O)CNC1=O [indium-111 labelled] — tissue uptake (female athymic nude mice, brain; intravenous, 3 µCi, 0.5 h, U-87 MG glioma xenograft): 0.27 ± 0.02 %ID/g
CC(C)C[C@H](NC(=O)[C@@H]1CCCN1C(=O)[C@H](CCCCN)NC(=O)[C@@H](N)CO)C(=O)N1CCC[C@H]1C(=O)N[C@@H](CCC(=O)O)C(=O)N[C@H](C(=O)N[C@H](C(=O)N[C@@H](CC(=O)O)C(=O)N[C@@H](CCC(=O)O)C(=O)N[C@@H](Cc1ccc(O)cc1)C(=O)N[C@@H](Cc1cn(CCOCCOCCOCCNC(=O)CCc2ccc(O)c(CN(CCN(CC(=O)O)Cc3cc(CCC(=O)NCCCC[C@H](NC(=O)N[C@@H](CCC(=O)O)C(=O)O)C(=O)O)ccc3O)CC(=O)O)c2)nn1)C(=O)O)[C@@H](C)O)C(C)C [gallium-68 labelled] — SUV (NMRI nu/nu mouse, LNCaP xenograft, femur; 10 MBq, high molar activity): 0.06 g/g
CCCC[C@H](NC(=O)CNC(=O)CNC(=O)c1ccc(NN)nc1)C(=O)N[C@H]1CC(=O)NCCCC[C@@H](C(N)=O)NC(=O)[C@H](Cc2c[nH]c3ccccc23)NC(=O)[C@H](CCCNC(=N)N)NC(=O)[C@@H](Cc2ccccc2)NC(=O)[C@H](Cc2c[nH]cn2)NC1=O [technetium-99m labelled] — uptake (C57 mouse, B16/F1 melanoma, heart; 2 h, together with: NDP-MSH 6.07 nmol blockade): 0.1 ± 0.05 %ID/g
CN[C@](C)(C[18F])C(=O)O — tracer uptake (A549 tumour model; host not given, heart; 30 min, tumour-bearing): 2.7 %ID/g
C[C@H](NC(=O)[C@H](CCCNC(=N)N)NC(=O)[C@H](CCCNC(=N)N)NC(=O)CNC(=O)[C@H](Cc1ccc(O)cc1)NC(=O)CCCN)C(=O)N[C@@H](CCCNC(=N)N)C(=O)N[C@@H](CCCNC(=N)N)C(=O)N[C@@H](CCCNC(=N)N)C(=O)N[C@@H](CCCNC(=N)N)C(=O)N[C@@H](CCCNC(=N)N)C(=O)N[C@@H](CCCNC(=N)N)C(=O)O — GABA concentration (LC-MS; Kunming mouse, male, brain; intravenous, 10 mg/kg, 1 h, together with: GABA 50 mg/kg): 446 ± 44 µg/g
CC(C)C[C@@H]1NC(=O)[C@H](C(C)C)NC(=O)[C@H](CO)NC(=O)CNC(=O)CNC(=O)[C@H](CCCNC(=N)N)NC(=O)[C@@H]2CCCN2C(=O)[C@@H](NC(=O)CC[C@H](NC(=O)c2ccc(N(C)Cc3cnc4nc(N)nc(N)c4n3)cc2)C(=O)O)C(C)(C)SSC[C@@H](C(=O)O)NC(=O)CNC(=O)[C@H]([C@@H](C)O)NC(=O)[C@H](C(C)C)NC1=O — degradation rate constant (HPLC; Phosphate buffer; pH 8.0, 70 °C): 0.0031 h⁻¹
COc1ccc(C[C@H]2C(=O)N(C)[C@@H](Cc3ccc(O)cc3)C(=O)N(C)[C@@H](Cc3ccccc3)C(=O)N[C@@H](CC(N)=O)C(=O)NCC(=O)N(C)[C@@H](Cc3ccc(O)cc3)C(=O)N[C@@H](CC(N)=O)C(=O)N[C@@H](Cc3c[nH]cn3)C(=O)N[C@@H](Cc3ccc(O)cc3)C(=O)N[C@@H](Cc3c[nH]c4ccccc34)C(=O)N[C@H](C(N)=O)CSCC(=O)N[C@H](Cc3ccc(O)cc3)C(=O)N[C@@H](CC(=O)O)C(=O)N[C@@H](CO)C(=O)N[C@@H](Cc3ccc(O)cc3)C(=O)N[C@@H](C)C(=O)N2C)cc1 — AC50 (cofactor-independent phosphoglycerate mutase (Metamycoplasma orale, UniProt A0A448ZXM1, W431C); biochemical; Mycoplasma orale): 2040 nM

Some of these lines once more:
C[C@H](NC(=O)[C@H](CCCNC(=N)N)NC(=O)[C@H](CCCNC(=N)N)NC(=O)CNC(=O)[C@H](Cc1ccc(O)cc1)NC(=O)CCCN)C(=O)N[C@@H](CCCNC(=N)N)C(=O)N[C@@H](CCCNC(=N)N)C(=O)N[C@@H](CCCNC(=N)N)C(=O)N[C@@H](CCCNC(=N)N)C(=O)N[C@@H](CCCNC(=N)N)C(=O)N[C@@H](CCCNC(=N)N)C(=O)O — GABA concentration (LC-MS; Kunming mouse, male, brain; intravenous, 10 mg/kg, 1 h, together with: GABA 50 mg/kg): 446 ± 44 µg/g
CCCC[C@H](NC(=O)CNC(=O)CNC(=O)CNC(=O)c1ccc(NN)nc1)C(=O)N[C@H]1CC(=O)NCCCC[C@@H](C(N)=O)NC(=O)[C@H](Cc2c[nH]c3ccccc23)NC(=O)[C@H](CCCNC(=N)N)NC(=O)[C@@H](Cc2ccccc2)NC(=O)[C@H](Cc2c[nH]cn2)NC1=O [technetium-99m labelled] — uptake ratio (C57 mouse, B16/F1 melanoma; 2 h; baseline: tumour over liver): 37.3
